Assay results from different studies.

SMILES = COc1nnc2ccc(N3CCC(c4ccc(OCCN5CCN(C)C(=O)[C@H]5C)cc4)CC3)nn12; test system = relapsed/refractory solid tumour or lymphoma patients; conditions = oral, dose not given; endpoint = grade ≥3 TEAE; result = 55.9%
SMILES = COc1cc2c(Oc3ccc4[nH]c(C)cc4c3F)ccnc2cc1OCC1(N)CC1; test system = paediatric recurrent refractory sarcoma; conditions = concentration not given, whole group; endpoint = grade 1 or 2 Hematochezia; result = 5.9%
SMILES = CC(C)n1c(C2CCNCC2)nc2c([N+](=O)[O-])c(Br)c(Br)cc21; test = item: Neutropenia; test system = AML patients; conditions = dose not given, all doses; endpoint = grade ≥3 adverse events; result = 25%
SMILES = N[C@@H]1c2ccccc2OC12CCN(c1cnc3c(N4CCCc5ncccc54)n[nH]c3n1)CC2; test system = patients advanced metastatic solid tumours; conditions = oral, 60 mg once daily, pooled cohort; endpoint = grade ≥3 decreased appetite TEAE; result = 0%
SMILES = CCN1[C@@H](C(=O)NC23CCC(C(=O)O)(CC2)CC3)[C@H](c2cccc(Cl)c2F)[C@]2(C(=O)Nc3cc(Cl)ccc32)C12CCCCC2; test system = patients with advanced solid tumours; conditions = oral, 100 mg; endpoint = grade ≥3 adverse event incidence; result = 27.3%
SMILES = Nc1nc2cc(-c3ccc4ncc(C(=O)N5CCOCC5)n4c3)ccc2o1; test system = advanced solid tumour patients; conditions = dose not given; scale = reference: patients; endpoint = grade ≥3 drug-related AEs; result = 22%
SMILES = Cc1ncc2n1-c1ccc(Cl)cc1C(c1ccccc1F)=NC2; test system = healthy volunteers; conditions = oral, 5 mg, added: momelotinib 200 mg; endpoint = grade 3 adverse events; result = 0%
SMILES = NC(=O)[C@H]1CCN(c2ncnc(N)c2F)C[C@@H]1N1CCC[C@@H](Nc2cc(Cl)cc(C(F)(F)F)c2)C1=O; test system = B-cell malignancy patients; conditions = oral, 41 mg twice daily, dose; endpoint = grade ≥3 leukopenia; result = 10%
SMILES = CC(=O)c1c(C)c2cnc(Nc3ccc(C4CCN(CCS(C)(=O)=O)CC4)cn3)nc2n(C2CCCC2)c1=O; test system = HR+/HER2- advanced breast cancer patients; conditions = oral, dose not given; endpoint = grade 3/4 neutropenia TEAE; result = 47.3 % patients
SMILES = COc1ccc(-c2c(-c3ccc(C#N)c(F)c3)nc(N3CCC(N)CC3)n(C)c2=O)cc1F; test = item: ≥1 grade 3-4 TRAE; test system = relapsed/refractory MZL patients; conditions = oral, 60 mg, dose expansion; endpoint = grade 3-4 TRAE incidence; result = 33%
SMILES = Cc1cc(C)c(CNC(=O)c2cc(Cl)c3c(c2C)O[C@@](C)([C@H]2CC[C@H](N(C)C)CC2)O3)c(=O)[nH]1; test system = relapsed/refractory NHL patients; conditions = dose not given, treatment-related TEAEs, safety set; endpoint = grade 5 any TEAE incidence; result = 0%

Some of these lines once more:
SMILES = Nc1nc2cc(-c3ccc4ncc(C(=O)N5CCOCC5)n4c3)ccc2o1; test system = advanced solid tumour patients; conditions = dose not given; scale = reference: patients; endpoint = grade ≥3 drug-related AEs; result = 22%
